Results of several laboratories.
Lines come from different studies, so protocols differ. Values joined by “and” are separate records of one study, mostly repeats; a detail may differ. ± marks the error that the study gave.
B1: sequence looked up; chain MGRTYIVEETVGQYLSNINLQGKAFVSGLLIGQCSSQKDYVILATRTPPKEEQSENLKHPKAKLDNLDEEWATEHACQVSRMLPGGLLVLGVFIITTLELANDFQNALRRLMFAVEKSINRKRLWNFTEEEVSERVTLHICASTKKIFCRTYDIHDPKSSARPADWKYQSGLSSSWLSLECTVHINIHIPLSATSVSYTLEKNTKNGLTRWAKEIENGVYLINGQVKDEDCDLLEGQKKSSRGNTQATSHSFDVRVLTQLLLNSDHRSTATVQICSGSVNLKGAVKCRAYIHSSKPKVKDAVQAVKRDILNTVADRCEMLFEDLLLNEIPEKKDSEKEFHVLPYRVFVPLPGSTVMLCDYKFDDESAEEIRDHFMEMLDHTIQIEDLEIAEETNTACMSSSMNSQASLDNTDDEQPKQPIKTTMLLKIQQNIGVIAAFTVAVLAAGISFHYFSD
B2: threonyl-tRNA synthetase, cytoplasmic (human); sequence looked up; chain MFEEKASSPSGKMGGEEKPIGAGEEKQKEGGKKKNKEGSGDGGRAELNPWPEYIYTRLEMYNILKAEHDSILAEKAEKDSKPIKVTLPDGKQVDAESWKTTPYQIACGISQGLADNTVIAKVNNVVWDLDRPLEEDCTLELLKFEDEEAQAVYWHSSAHIMGEAMERVYGGCLCYGPPIENGFYYDMYLEEGGVSSNDFSSLEALCKKIIKEKQAFERLEVKKETLLAMFKYNKFKCRILNEKVNTPTTTVYRCGPLIDLCRGPHVRHTGKIKALKIHKNSSTYWEGKADMETLQRIYGISFPDPKMLKEWEKFQEEAKNRDHRKIGRDQELYFFHELSPGSCFFLPKGAYIYNALIEFIRSEYRKRGFQEVVTPNIFNSRLWMTSGHWQHYSENMFSFEVEKELFALKPMNCPGHCLMFDHRPRSWRELPLRLADFGVLHRNELSGALTGLTRVRRFQQDDAHIFCAMEQIEDEIKGCLDFLRTVYSVFGFSFKLNLSTRPEKFLGDIEVWDQAEKQLENSLNEFGEKWELNSGDGAFYGPKIDIQIKDAIGRYHQCATIQLDFQLPIRFNLTYVSHDGDDKKRPVIVHRAILGSVERMIAILTENYGGKWPFWLSPRQVMVVPVGPTCDEYAQKVRQQFHDAKFMADIDLDPGCTLNKKIRNAQLAQYNFILVVGEKEKISGTVNIRTRDNKVHGERTISETIERLQQLKEFRSKQAEEEF
B3: peroxiredoxin-4 (human); sequence looked up; chain WETEERPRTREEECHFYAGGQVYPGEASRVSVADHSLHLSKAKISKPAPYWEGTAVIDGEFKELKLTDYRGKYLVFFFYPLDFTFVCPTEIIAFGDRLEEFRSINTEVVACSVDSQFTHLAWINTPRRQGGLGPIRIPLLSDLTHQISKDYGVYLEDSGHTLRGLFIIDDKGILRQITLNDLPVGRSVDETLRLVQAFQYTDKHGEVCPAGWKPGSETIIPDPAGKLKYFDKLN
Sequence of UniProt Q64663 (whole entry, unmodified, looked up): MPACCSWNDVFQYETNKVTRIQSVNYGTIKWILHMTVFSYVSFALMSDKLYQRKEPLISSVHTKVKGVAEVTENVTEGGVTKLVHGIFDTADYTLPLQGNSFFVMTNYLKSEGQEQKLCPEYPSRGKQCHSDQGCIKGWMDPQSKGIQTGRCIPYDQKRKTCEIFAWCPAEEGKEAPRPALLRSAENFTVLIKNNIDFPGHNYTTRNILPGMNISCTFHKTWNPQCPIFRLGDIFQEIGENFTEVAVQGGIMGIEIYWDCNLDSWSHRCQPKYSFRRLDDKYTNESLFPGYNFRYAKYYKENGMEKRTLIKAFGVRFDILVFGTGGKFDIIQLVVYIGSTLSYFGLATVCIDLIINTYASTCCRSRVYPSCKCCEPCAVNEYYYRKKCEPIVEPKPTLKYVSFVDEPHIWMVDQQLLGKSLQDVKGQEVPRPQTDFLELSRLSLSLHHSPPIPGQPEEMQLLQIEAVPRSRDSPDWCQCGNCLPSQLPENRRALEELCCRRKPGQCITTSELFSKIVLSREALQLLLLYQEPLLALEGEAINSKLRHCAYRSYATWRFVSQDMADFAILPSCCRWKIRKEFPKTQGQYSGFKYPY

With `GSGAGSETSV` the binding intensity was 0.421 (construct, MBP fusion, human SCRIB, PDZ 3-4; automated holdup; peptide, crude extract; concentration not given, corrected by standard peak, unit not given; reference: biotin control resin, higher = stronger binding).
`caspofungin` gave an aspartate aminotransferase of 28.1 U/L (adult ICU patients, mITT, serum; dose not given, Baseline).
`B1` — result for “log2 fold change”: 0.1 (CYB5R4 knockout human cells; PP6 interaction, 3xFLAG-PP6C IP-MS; concentration not given; reference: CYB5R4 KO over parental).
`MTVCNASQRQAHAQATAVSL` gave a selectivity ratio of 0.4 ± 0.11 (H2882; phage binding; peptide; reference: targeting over control phage).
`Peginesatide` gave a mRNA level of 5.9 fold (UT7/EPO; RT-qPCR, measured: FOS; concentration not given, 90 min, normalized to HPRT1; reference: vehicle).
The MIC of `colistin` is reported as at most 0.5 µg/mL (Enterobacter cloacae; broth microdilution; clinical isolate RKI-No_34/16).
`FGA (Homo sapiens, UniProt P02671)`: cross-linked residues “K437 to K215” (DEPDC1B (Homo sapiens, UniProt Q8WUY9); cross-linking MS; with: DSSO).
For `11-deoxycorticosterone`, “rate constant k-1” read 47.2 ± 1.85 s⁻¹ (CYP11B2 (human); substrate binding, stopped-flow global kinetic fitting; purified enzyme; 3-state induced fit model, with: equimolar adrenodoxin).
`B2` — result for “log2 fold change”: 0.49 (PP6C (human); co-immunoprecipitation, IP-MS; CYB5R4 knockout cells; concentration not given; reference: CYB5R4 knockout over parental).
With `CTOP` the retention time was 14.5 min (RP-HPLC; HALO RP-amide column; 25 µM, formic acid/methanol, 25 min gradient).
`GSGAGHETIV` has a binding intensity of 0.333 (construct, MBP fusion, human SCRIB, PDZ 3-4; automated holdup; peptide, crude extract; concentration not given, uncorrected, unit not given; reference: biotin control resin, higher = stronger binding).
The nucleoid length of `Nisin` is reported as 1.43 µm and 1.52 µm and 1.46 µm (Bacillus subtilis; ATCC 6633; concentration not given).
`BzATP` gave a normalized current of 0.733 and 0.68 and 0.444 (P2X purinoceptor 7 (P2rx7, Rattus norvegicus, UniProt Q64663, I214A); ion current, agonist, two-electrode voltage clamp; Xenopus oocytes; 3.7 µM).
With `VMRLQSETSV` the binding intensity was 0.477 (construct, MBP fusion, human SCRIB, PDZ 3-4; automated holdup; peptide, crude extract; concentration not given, uncorrected, unit not given; reference: biotin control resin, higher = stronger binding).
`B3 (peroxiredoxin-4)` — result for “log2 fold change”: -0.21 (CYB5R4 knockout human cells; PP4 interaction, 3xFLAG-PP4C IP-MS; concentration not given; reference: CYB5R4 KO over parental).
